Measurements from different studies.
Lines come from different studies, so protocols differ. “And” joins repeats or separate records; there may be more than shown. Numbers after ± are the reported error.

C#Cc1cn([C@@H]2O[C@H](CO)C[C@H]2O)c2ncnc(N)c12 — EC50 (MRC-5 SV2; cytotoxicity, resazurin; medium with 5% FBS; 72 h): 1.29 ± 0.56 µM
CCCCCCc1ccc(S(=O)(=O)N2CC2C(=O)NC)cc1 (centres unmarked) — IC50 (Balb/c 3T3 fibroblasts; cytotoxicity, neutral red uptake; DMEM with 5% FBS; 24 h): 9.9 ± 2.3 µM
COc1cc(/C=C/C(=O)CC(C)=O)ccc1O — cytotoxicity (normal cells; up to 10 µM): toxic
CC1(C)CCCC(C)(C2CCC3(C)C2C(O)CC2C4(C)CCC(O)C(C)(C)C4C(OC(=O)c4cn(-c5ccc(Cl)cc5)nn4)CC23C)O1 (centres unmarked) — IC50 (Hep3B; cell growth or viability, MTT; 24 h): > 30 µM
COC(=O)NC(C(=O)NN(Cc1ccc(Br)cc1)CC(O)(Cc1ccccc1)C(=O)Nc1cccc(O)c1C)C(C)(C)C (centres unmarked) — Papp B-to-A (Caco-2; pH 7.4, 1% BSA in receiver): 1900 ± 100 nm/s
CCCCCCc1ccc(S(=O)(=O)N2CC2C(=O)N2CCCC2)cc1 (centres unmarked) — IC50 (Balb/c 3T3 fibroblasts; cytotoxicity, neutral red uptake; DMEM with 5% FBS; 24 h): 10 ± 2 µM
CC1(C)CCCC(C)(C2CCC3(C)C2C(O)CC2C4(C)CCC(O)C(C)(C)C4C(OC(=O)NCc4ccccc4)CC23C)O1 (centres unmarked) — IC50 (Hep3B; cell growth or viability, MTT; 24 h): > 30 µM
CCCCCCc1ccc(S(=O)(=O)N2CC2C(=O)OC)cc1 (centres unmarked) — IC50 (Balb/c 3T3 fibroblasts; cytotoxicity, neutral red uptake; DMEM with 5% FBS; 24 h): 6.3 ± 4.2 µM
N=C(N)NCCC[C@@H]1NC(=O)[C@H](CCCNC(=N)N)NC(=O)[C@H](CCCNC(=N)N)NC(=O)[C@H](Cc2ccc3ccccc3c2)NC(=O)[C@H](Cc2ccc3ccccc3c2)NC(=O)[C@H](Cc2c[nH]c3ccccc23)NC(=O)[C@H](CCCNC(=N)N)NC1=O — HC50 (human red blood cells; hemolysis): 150 µg/mL
CC[C@H](C)[C@H](NC(=O)[C@H](C)NC(=O)CNC(=O)[C@H](Cc1ccccc1)NC(=O)[C@H](CC(N)=O)NC(=O)[C@H](CC(N)=O)NC(=O)[C@H](CO)NC(=O)[C@H](CO)NC(=O)[C@H](Cc1c[nH]cn1)NC(=O)[C@@H](NC(=O)[C@H](CC(C)C)NC(=O)[C@H](Cc1ccccc1)NC(=O)[C@H](CC(N)=O)NC(=O)[C@H](C)NC(=O)[C@H](CC(C)C)NC(=O)[C@H](CCCNC(=N)N)NC(=O)[C@H](CCC(N)=O)NC(=O)[C@@H](NC(=O)[C@H](C)NC(=O)[C@@H]1CSSC[C@H](NC(=O)[C@@H](N)CCCCN)C(=O)N[C@@H](CC(N)=O)C(=O)N[C@@H]([C@@H](C)O)C(=O)N[C@@H](C)C(=O)N[C@@H]([C@@H](C)O)C(=O)N1)[C@@H](C)O)C(C)C)C(=O)N[C@@H](CC(C)C)C(=O)N[C@@H](CO)C(=O)N[C@@H](CO)C(=O)N[C@H](C(=O)N[C@@H](CC(N)=O)C(=O)N[C@H](C(=O)NCC(=O)N[C@@H](CO)C(=O)N[C@@H](CC(N)=O)C(=O)N[C@H](C(=O)N[C@@H](Cc1ccc(O)cc1)C(N)=O)[C@@H](C)O)C(C)C)[C@@H](C)O — viability (INS-1; AlamarBlue; 42 µM, 48 h; baseline: medium alone): 9 ± 9%
CCCCCCc1ccc(S(=O)(=O)N2CC2C(=O)N2CCOCC2)cc1 (centres unmarked) — IC50 (Balb/c 3T3 fibroblasts; cytotoxicity, neutral red uptake; DMEM with 5% FBS; 24 h): 8.6 ± 0.7 µM
CC(C)=CCc1cc(-c2coc3cc(O)c(CC=C(C)C)c(O)c3c2=O)ccc1O — viability (A549; cell growth or viability, MTT; 25 µg/mL): 108%
CC1(C)CCCC(C)(C2CCC3(C)C2C(O)CC2C4(C)CCC(O)C(C)(C)C4C(OC(=O)/C=C\c4ccc(Cl)cc4)CC23C)O1 (centres unmarked) — IC50 (Hep3B; cell growth or viability, MTT; 24 h): > 30 µM
CC(C)=CCc1c2c(c(O)c3c(=O)c(-c4ccc(O)cc4)coc13)CC(C(C)(C)O)O2 (centres unmarked) — viability (A549; cell growth or viability, MTT; 50 µg/mL): 5.57%
Nc1ncnc2c1ccn2[C@@H]1O[C@H](CO)C[C@H]1O — EC50 (MRC-5 SV2; cytotoxicity, resazurin; medium with 5% FBS; 72 h): > 64 µM
COc1ccc(/C=C\C(=O)OC2CC3(C)C(CC(O)C4C(C5(C)CCCC(C)(C)O5)CCC43C)C3(C)CCC(O)C(C)(C)C23)cc1 (centres unmarked) — IC50 (Hep3B; cell growth or viability, MTT; 24 h): > 30 µM
CCCC[C@H](NC(=O)[C@H](CC(=O)O)NC(=O)[C@H](CC(=O)O)NC(=O)[C@H](CCC(=O)O)NC(=O)[C@H](Cc1ccc(O)cc1)NC(=O)[C@H](CC(=O)O)NC(=O)[C@H](CC(=O)O)NC(=O)[C@H](CCC(=O)O)NC(=O)[C@H](CC(C)C)NC(=O)[C@H](CCC(=O)O)NC(=O)[C@H](CCC(=O)O)NC(=O)c1ccc2c(c1)C1(OC2=O)c2ccc(O)cc2Oc2cc(O)ccc21)C(=O)N[C@@H](CCC(=O)O)C(=O)N[C@@H](CCC(=O)O)C(N)=O — half-life (A-431 microinjected; median): 35 min
CC(=O)N[C@H](C(=O)N[C@H](C(=O)N[C@@H](CCCNC(=N)N)C(=O)N1Cc2ccccc2C[C@H]1C(=O)N[C@@H](Cc1ccccc1)C(N)=O)C1CCCCC1)C(C)C — cytokine level (human PBMC; Bio-Plex multiplex, measured: IL-15; 250 µg/mL, 24 h): < 0.5 pg/mL
COC(=O)NC(C(=O)NN(Cc1ccc(-c2ccccc2)cc1)CC(O)(Cc1ccccc1)C(=O)NC1c2ccccc2CC1O)C(C)(C)C (centres unmarked) — Papp A-to-B (Caco-2; pH 7.4, 1% BSA in receiver): 808 ± 66 nm/s
COC(=O)C1CN1S(=O)(=O)c1ccc(C2CCCCC2)cc1 (centres unmarked) — IC50 (Balb/c 3T3 fibroblasts; cytotoxicity, neutral red uptake; DMEM with 5% FBS; 24 h): 110 ± 1 µM
CCCCCCCCCCCCCCCCCC(=O)N[C@@H](CCCNC(=N)N)C(=O)N[C@@H](CCCNC(=N)N)C(=O)N[C@@H](CCCNC(=N)N)C(=O)N[C@@H](CCCNC(=N)N)C(=O)N[C@@H](CCCNC(=N)N)C(N)=O — HC50 (human red blood cells; haemolysis): > 32 µg/mL and < 32 µg/mL
CCCN(CC(=O)N(CCC)CC(=O)N(CCC)CC(=O)N(CCC)CC(=O)N(CC(=O)N(CCC)CC(=O)N(CCC)CC(=O)N(CCC)CC(=O)N(CCC)CC(=O)N(CC(N)=O)Cc1cn(CCCNC(=O)CCCOc2cccc(-c3nc4ccc(-c5nc6ccc(N7CCN(C)CC7)cc6[nH]5)cc4[nH]3)c2)nn1)Cc1cn(CCCNC(=O)CCCOc2cccc(-c3nc4ccc(-c5nc6ccc(N7CCN(C)CC7)cc6[nH]5)cc4[nH]3)c2)nn1)C(=O)CNCc1cn(CCCNC(=O)CCCOc2cccc(-c3nc4ccc(-c5nc6ccc(N7CCN(C)CC7)cc6[nH]5)cc4[nH]3)c2)nn1 — propidium iodide-only positive cells (C2C12; flow cytometry; 5 µM, 14 h): 4.7%
[99Tc+].[C-]#[N+]CC(C)(C)OC.[C-]#[N+]CC(C)(C)OC.[C-]#[N+]CC(C)(C)OC.[C-]#[N+]CC(C)(C)OC.[C-]#[N+]CC(C)(C)OC.[C-]#[N+]CC(C)(C)OC — in vitro biliary clearance (rat sandwich-cultured hepatocytes, noninfected; 10 min): 0.244 L/h/kg
CCCN(CC(=O)N(CCC)CC(=O)N(CCC)CC(=O)N(CCC)CC(=O)N(CC(=O)N(CCC)CC(=O)N(CCC)CC(=O)N(CCC)CC(=O)N(CCC)CC(=O)N(CC(=O)N(CCC)CC(=O)N(CCC)CC(=O)N(CCC)CC(=O)N(CCC)CC(=O)N(CC(N)=O)Cc1cn(CCCNC(=O)CCCOc2cccc(-c3nc4ccc(-c5nc6ccc(N7CCN(C)CC7)cc6[nH]5)cc4[nH]3)c2)nn1)Cc1cn(CCCNC(=O)CCCOc2cccc(-c3nc4ccc(-c5nc6ccc(N7CCN(C)CC7)cc6[nH]5)cc4[nH]3)c2)nn1)Cc1cn(CCCNC(=O)CCCOc2cccc(-c3nc4ccc(-c5nc6ccc(N7CCN(C)CC7)cc6[nH]5)cc4[nH]3)c2)nn1)C(=O)CNCc1cn(CCCNC(=O)CCCOc2cccc(-c3nc4ccc(-c5nc6ccc(N7CCN(C)CC7)cc6[nH]5)cc4[nH]3)c2)nn1 — ligand- and PI-positive cells (C2C12; flow cytometry; 5 µM, 48 h): 1.3%
Cc1ccc(N2Cc3cc(NC(=O)N4CCN(c5cccc(C(F)(F)F)c5)CC4)ccc3C2=O)cc1 — cytotoxicity (MRC-5 SV2; concentration not given): not toxic
CC(C)=CCc1c(O)c(CC=C(C)C)c2occ(-c3ccc(O)c(O)c3)c(=O)c2c1O — viability (RAW264.7; cell growth or viability, MTT; 12.5 µg/mL, 24 h): 90.3%
CC1(C)CCCC(C)(C2CCC3(C)C2C(O)CC2C4(C)CCC(OC(=O)c5cn(-c6ccccc6)nn5)C(C)(C)C4C(O)CC23C)O1 (centres unmarked) — IC50 (Hep3B; cell growth or viability, MTT; 24 h): > 30 µM
COc1cc(CN2CCN(c3ccccc3[N+](=O)[O-])CC2)c2cc3[n+](cc2c1O)CCc1cc2c(cc1-3)OCO2 — CC50 (MDCK; cell growth or viability, SRB; 48 h): 129 mg/L
Nc1ncnc2c1c(Cl)cn2[C@@H]1O[C@H](CO)C[C@H]1O — EC50 (MRC-5 SV2; cytotoxicity, resazurin; medium with 5% FBS; 72 h): 9.9 ± 1.5 µM
COC(=O)C1CN1S(=O)(=O)c1ccc(-c2ccccc2)cc1 (centres unmarked) — IC50 (Balb/c 3T3 fibroblasts; cytotoxicity, neutral red uptake; DMEM with 5% FBS; 24 h): 40 ± 5 µM
C#Cc1cccc(Nc2ncnc3cc(OC)c(OCCCN4CCOCC4)cc23)c1 — Papp (A to B) (Caco-2; 10 µM, 90 min, 37 °C): 91.3 ± 0.2 nm/s
C=C(C)C(=O)Nc1ccc(-c2c(-c3ccc(Oc4nccc(C)n4)cc3)c3c(N)ncnc3n2C)cc1 — Papp B-A (Caco-2): 62 nm/s

A few entries again:
CC(C)=CCc1c2c(c(O)c3c(=O)c(-c4ccc(O)cc4)coc13)CC(C(C)(C)O)O2 (centres unmarked) — viability (A549; cell growth or viability, MTT; 50 µg/mL): 5.57%
CC1(C)CCCC(C)(C2CCC3(C)C2C(O)CC2C4(C)CCC(O)C(C)(C)C4C(OC(=O)NCc4ccccc4)CC23C)O1 (centres unmarked) — IC50 (Hep3B; cell growth or viability, MTT; 24 h): > 30 µM
COc1cc(/C=C/C(=O)CC(C)=O)ccc1O — cytotoxicity (normal cells; up to 10 µM): toxic
CC[C@H](C)[C@H](NC(=O)[C@H](C)NC(=O)CNC(=O)[C@H](Cc1ccccc1)NC(=O)[C@H](CC(N)=O)NC(=O)[C@H](CC(N)=O)NC(=O)[C@H](CO)NC(=O)[C@H](CO)NC(=O)[C@H](Cc1c[nH]cn1)NC(=O)[C@@H](NC(=O)[C@H](CC(C)C)NC(=O)[C@H](Cc1ccccc1)NC(=O)[C@H](CC(N)=O)NC(=O)[C@H](C)NC(=O)[C@H](CC(C)C)NC(=O)[C@H](CCCNC(=N)N)NC(=O)[C@H](CCC(N)=O)NC(=O)[C@@H](NC(=O)[C@H](C)NC(=O)[C@@H]1CSSC[C@H](NC(=O)[C@@H](N)CCCCN)C(=O)N[C@@H](CC(N)=O)C(=O)N[C@@H]([C@@H](C)O)C(=O)N[C@@H](C)C(=O)N[C@@H]([C@@H](C)O)C(=O)N1)[C@@H](C)O)C(C)C)C(=O)N[C@@H](CC(C)C)C(=O)N[C@@H](CO)C(=O)N[C@@H](CO)C(=O)N[C@H](C(=O)N[C@@H](CC(N)=O)C(=O)N[C@H](C(=O)NCC(=O)N[C@@H](CO)C(=O)N[C@@H](CC(N)=O)C(=O)N[C@H](C(=O)N[C@@H](Cc1ccc(O)cc1)C(N)=O)[C@@H](C)O)C(C)C)[C@@H](C)O — viability (INS-1; AlamarBlue; 42 µM, 48 h; baseline: medium alone): 9 ± 9%
Cc1ccc(N2Cc3cc(NC(=O)N4CCN(c5cccc(C(F)(F)F)c5)CC4)ccc3C2=O)cc1 — cytotoxicity (MRC-5 SV2; concentration not given): not toxic
